Measured values collected from several papers.
A part holds a random share of what one study measured. Several values in a cell are separate wells, animals, samples, runs or records.
Sequence of UniProt P27361 (whole entry, looked up): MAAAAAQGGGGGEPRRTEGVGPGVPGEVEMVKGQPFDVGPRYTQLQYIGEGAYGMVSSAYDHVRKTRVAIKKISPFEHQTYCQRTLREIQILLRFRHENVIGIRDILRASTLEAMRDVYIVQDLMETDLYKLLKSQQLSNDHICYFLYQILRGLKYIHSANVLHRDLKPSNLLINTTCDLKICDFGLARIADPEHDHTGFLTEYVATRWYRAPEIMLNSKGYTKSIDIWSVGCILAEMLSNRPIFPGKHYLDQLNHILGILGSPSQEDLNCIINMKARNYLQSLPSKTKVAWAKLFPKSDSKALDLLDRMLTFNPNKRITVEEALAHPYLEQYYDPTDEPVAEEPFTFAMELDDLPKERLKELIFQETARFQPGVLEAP
Sequence of UniProt Q96SW2 (whole entry, looked up): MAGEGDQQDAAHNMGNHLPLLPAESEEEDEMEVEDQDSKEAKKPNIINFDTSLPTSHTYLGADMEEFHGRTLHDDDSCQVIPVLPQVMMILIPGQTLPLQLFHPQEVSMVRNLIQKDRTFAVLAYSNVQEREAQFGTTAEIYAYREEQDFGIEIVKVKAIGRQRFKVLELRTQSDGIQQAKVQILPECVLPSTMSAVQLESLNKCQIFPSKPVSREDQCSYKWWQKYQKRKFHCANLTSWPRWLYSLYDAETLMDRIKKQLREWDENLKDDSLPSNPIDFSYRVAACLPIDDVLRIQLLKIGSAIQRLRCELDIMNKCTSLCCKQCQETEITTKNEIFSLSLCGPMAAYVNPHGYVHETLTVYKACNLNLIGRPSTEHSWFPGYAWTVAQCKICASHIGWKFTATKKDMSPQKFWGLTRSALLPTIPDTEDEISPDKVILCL
Sequence of UniProt Q05655 (whole entry, looked up): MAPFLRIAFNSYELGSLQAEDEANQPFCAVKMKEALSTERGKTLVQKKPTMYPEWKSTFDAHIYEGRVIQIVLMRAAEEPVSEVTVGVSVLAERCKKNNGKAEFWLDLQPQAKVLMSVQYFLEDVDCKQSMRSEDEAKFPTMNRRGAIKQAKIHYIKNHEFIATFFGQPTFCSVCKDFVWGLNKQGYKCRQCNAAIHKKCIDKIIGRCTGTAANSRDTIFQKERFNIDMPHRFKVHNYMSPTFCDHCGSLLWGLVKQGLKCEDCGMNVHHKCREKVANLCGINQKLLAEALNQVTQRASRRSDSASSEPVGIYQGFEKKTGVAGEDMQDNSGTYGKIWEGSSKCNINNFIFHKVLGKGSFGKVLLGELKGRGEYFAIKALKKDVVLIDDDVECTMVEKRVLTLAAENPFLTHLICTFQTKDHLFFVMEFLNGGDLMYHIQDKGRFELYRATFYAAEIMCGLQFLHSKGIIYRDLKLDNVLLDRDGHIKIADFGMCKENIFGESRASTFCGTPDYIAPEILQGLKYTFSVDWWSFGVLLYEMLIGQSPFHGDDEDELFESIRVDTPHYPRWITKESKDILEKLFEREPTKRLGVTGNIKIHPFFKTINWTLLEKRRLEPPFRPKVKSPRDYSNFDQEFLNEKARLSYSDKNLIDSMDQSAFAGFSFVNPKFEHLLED
Sequence of UniProt P19784 (whole entry, looked up): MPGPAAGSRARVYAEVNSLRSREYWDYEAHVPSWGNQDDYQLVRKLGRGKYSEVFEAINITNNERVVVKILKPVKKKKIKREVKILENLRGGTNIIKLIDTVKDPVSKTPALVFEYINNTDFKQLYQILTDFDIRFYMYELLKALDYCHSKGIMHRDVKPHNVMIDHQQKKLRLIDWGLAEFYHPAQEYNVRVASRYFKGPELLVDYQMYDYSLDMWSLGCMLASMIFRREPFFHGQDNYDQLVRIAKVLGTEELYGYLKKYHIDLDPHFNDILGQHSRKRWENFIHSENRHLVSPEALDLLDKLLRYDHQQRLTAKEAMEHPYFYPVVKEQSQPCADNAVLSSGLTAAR
Sequence of UniProt Q59H18 (whole entry, looked up): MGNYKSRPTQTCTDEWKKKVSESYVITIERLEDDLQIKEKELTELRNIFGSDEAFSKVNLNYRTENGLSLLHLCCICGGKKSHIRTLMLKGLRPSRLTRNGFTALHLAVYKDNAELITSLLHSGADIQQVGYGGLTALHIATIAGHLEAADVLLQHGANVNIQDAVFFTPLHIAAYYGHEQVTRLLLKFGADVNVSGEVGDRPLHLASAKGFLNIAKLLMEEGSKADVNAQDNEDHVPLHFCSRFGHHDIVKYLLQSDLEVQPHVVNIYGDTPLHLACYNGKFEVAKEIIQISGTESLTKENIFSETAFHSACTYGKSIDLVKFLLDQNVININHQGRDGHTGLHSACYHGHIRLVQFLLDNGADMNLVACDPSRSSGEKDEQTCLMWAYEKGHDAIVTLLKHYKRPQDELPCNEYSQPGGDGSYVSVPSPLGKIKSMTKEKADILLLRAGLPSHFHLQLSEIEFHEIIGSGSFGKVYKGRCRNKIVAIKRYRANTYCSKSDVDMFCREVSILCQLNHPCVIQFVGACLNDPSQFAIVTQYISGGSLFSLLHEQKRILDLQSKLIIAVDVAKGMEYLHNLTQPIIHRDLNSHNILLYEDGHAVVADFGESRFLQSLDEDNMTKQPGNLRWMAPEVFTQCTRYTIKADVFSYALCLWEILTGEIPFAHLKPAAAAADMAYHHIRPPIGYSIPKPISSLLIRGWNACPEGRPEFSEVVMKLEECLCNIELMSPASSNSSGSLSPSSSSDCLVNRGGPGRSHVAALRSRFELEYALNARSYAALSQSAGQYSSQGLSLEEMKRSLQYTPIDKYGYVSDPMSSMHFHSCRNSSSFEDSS
Sequence of UniProt O14936 (whole entry, looked up): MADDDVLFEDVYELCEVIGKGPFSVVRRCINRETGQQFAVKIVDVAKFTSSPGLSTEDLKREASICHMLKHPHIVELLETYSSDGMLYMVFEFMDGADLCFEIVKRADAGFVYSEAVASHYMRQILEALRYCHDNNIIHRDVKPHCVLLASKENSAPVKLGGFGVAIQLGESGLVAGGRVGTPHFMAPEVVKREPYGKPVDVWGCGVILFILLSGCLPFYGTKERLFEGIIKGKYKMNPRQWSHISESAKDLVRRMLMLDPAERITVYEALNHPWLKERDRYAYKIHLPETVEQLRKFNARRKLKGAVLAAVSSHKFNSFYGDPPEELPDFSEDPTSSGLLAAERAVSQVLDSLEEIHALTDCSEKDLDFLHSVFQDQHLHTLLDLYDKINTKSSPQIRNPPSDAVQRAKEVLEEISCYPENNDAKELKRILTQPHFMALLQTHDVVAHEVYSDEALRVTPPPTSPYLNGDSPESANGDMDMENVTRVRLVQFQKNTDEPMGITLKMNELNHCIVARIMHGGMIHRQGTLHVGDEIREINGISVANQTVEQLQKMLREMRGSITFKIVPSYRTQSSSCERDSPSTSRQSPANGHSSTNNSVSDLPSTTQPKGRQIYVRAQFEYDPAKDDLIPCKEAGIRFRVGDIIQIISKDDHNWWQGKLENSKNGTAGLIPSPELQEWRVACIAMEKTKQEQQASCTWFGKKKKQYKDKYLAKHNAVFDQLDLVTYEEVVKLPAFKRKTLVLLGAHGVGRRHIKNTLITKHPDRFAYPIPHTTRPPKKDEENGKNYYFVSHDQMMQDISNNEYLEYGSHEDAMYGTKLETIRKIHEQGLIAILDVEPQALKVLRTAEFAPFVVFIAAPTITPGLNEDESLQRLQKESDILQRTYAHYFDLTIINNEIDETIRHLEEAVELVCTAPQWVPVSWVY
Sequence of UniProt Q9UKI8 (whole entry, looked up): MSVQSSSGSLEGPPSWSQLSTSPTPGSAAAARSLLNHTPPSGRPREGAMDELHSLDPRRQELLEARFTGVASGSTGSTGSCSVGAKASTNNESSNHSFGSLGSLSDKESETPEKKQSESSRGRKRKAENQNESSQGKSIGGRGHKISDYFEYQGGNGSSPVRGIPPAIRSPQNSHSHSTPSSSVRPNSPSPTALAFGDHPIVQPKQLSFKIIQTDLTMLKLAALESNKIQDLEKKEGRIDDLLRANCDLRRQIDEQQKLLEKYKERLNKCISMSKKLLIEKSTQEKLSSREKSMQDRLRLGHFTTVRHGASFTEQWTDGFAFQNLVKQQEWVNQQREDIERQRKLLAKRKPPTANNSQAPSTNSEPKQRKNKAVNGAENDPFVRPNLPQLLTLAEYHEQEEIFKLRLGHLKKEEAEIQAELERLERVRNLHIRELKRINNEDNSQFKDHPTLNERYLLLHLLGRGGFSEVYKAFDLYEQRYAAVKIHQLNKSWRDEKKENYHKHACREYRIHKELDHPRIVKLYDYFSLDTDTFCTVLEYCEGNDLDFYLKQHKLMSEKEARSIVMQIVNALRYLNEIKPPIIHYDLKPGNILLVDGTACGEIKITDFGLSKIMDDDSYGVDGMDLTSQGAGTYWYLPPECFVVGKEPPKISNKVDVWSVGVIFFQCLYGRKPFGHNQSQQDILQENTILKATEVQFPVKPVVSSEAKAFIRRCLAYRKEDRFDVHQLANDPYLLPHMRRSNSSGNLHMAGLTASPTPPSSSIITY

Series 1
SMILES: CCN1/C(=C/C=C2\CCCC(/C=C/C3=[N+](CC)c4ccccc4C3(C)C)=C2NCCCCCCCCN2CCC(Nc3nc4ccccc4n3Cc3ccc(F)cc3)CC2)C(C)(C)c2ccccc21
Cell line: U-87 MG
Concentration: concentration not given
Reference: DMSO
For measured: TUBB mRNA: “log2 fold change” read -1.81.
measured: PDLIM7 mRNA — “log2 fold change”: -1.1.
The “log2 fold change” was -1.54 (measured: RNF43 mRNA).
measured: ESM1 mRNA — “log2 fold change”: 3.86.
It gave -1.28 for “log2 fold change” (measured: DNAJC22 mRNA).
measured: SKA2 mRNA — “log2 fold change”: -1.82.
measured: PLXDC1 mRNA — “log2 fold change”: -1.53.
For measured: PPP4R2 mRNA: “log2 fold change” read 0.812.
For measured: IL16 mRNA: “log2 fold change” read -1.66.
The “log2 fold change” was 1.33 (measured: PHLDB3 mRNA).
For measured: KPNA2 mRNA: “log2 fold change” read -1.18.

Series 2
Compound: Cc1ccc(O)c(C)c1-c1cnc2[nH]c(-c3cnc(N4CCC5(CC4)CC(N4CCN(c6ccc(N[C@H]7CCC(=O)NC7=O)cc6F)CC4)CO5)nc3)cc2c1C#N (single isomer, unassigned)
PKMYT1: Membrane-associated tyrosine- and threonine-specific cdc2-inhibitory kinase (PKMYT1, Homo sapiens, UniProt Q99640)
Sequence of UniProt Q99640 (whole entry, looked up): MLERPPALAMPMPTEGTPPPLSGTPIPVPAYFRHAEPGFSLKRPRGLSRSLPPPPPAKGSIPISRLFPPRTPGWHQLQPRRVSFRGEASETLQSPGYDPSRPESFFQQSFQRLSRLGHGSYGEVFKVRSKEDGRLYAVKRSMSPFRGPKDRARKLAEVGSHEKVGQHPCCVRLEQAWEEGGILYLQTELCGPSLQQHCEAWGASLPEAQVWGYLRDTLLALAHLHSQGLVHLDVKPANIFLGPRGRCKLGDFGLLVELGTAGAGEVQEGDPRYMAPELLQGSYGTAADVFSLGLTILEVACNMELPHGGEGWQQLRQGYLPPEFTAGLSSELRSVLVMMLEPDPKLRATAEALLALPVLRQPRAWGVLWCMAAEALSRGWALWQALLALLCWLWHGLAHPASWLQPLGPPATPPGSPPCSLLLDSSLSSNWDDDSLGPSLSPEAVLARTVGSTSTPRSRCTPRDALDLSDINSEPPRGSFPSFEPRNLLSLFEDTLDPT
The inhibition was 64.2% (KLE; cell proliferation; 370.37 nM).
Protein cereblon (CRBN, Homo sapiens, UniProt Q96SW2); binding; 30000 nM — inhibition: 67.1% and 67.2%.
It gave 32% for inhibition (PKMYT1; 0.00412 µM).
It gave 98.4% and 97.5% for inhibition (PKMYT1; binding, HTRF; 123.46 nM).
It gave 82% and 81.4% for inhibition (PKMYT1; 13.72 nM).
The inhibition was 88% (PKMYT1; enzyme activity, inhibitor; 37.04 nM).
For SW1463; cell proliferation; 41.15 nM: inhibition read 10.5%.
It gave 97.4% and 98.4% for inhibition (PKMYT1; 123.5 nM).

Series 3
SMILES: CC[C@@]1(c2cccc(-c3c(F)cncc3OC)c2)C2=C(Nc3n[nH]cc31)[C@H](F)C(C)(C)CC2=O (single isomer, unassigned)
Concentration: 1 µM
PRKCH (Homo sapiens, UniProt P24723); kinase binding, KINOMEscan; reference: DMSO control — remaining binding: 91%.
It gave 73% for remaining binding (WNK2 (Homo sapiens, UniProt Q9Y3S1); kinase binding, KINOMEscan; reference: DMSO control).
TLK1 (Homo sapiens, UniProt Q9UKI8); binding, competition with immobilised ligand — remaining binding: 100%.
The remaining binding was 77% (FLT3 (Homo sapiens, UniProt P36888, D835H); binding, competition with immobilised ligand).
Aurora kinase A (AURKA, Homo sapiens, UniProt O14965); binding, competition with immobilised ligand — remaining binding: 65%.
CASK (Homo sapiens, UniProt O14936); binding, competition with immobilised ligand — remaining binding: 74%.
It gave 93% for remaining binding (MAPK3 (Homo sapiens, UniProt P27361); binding, competition with immobilised ligand).
It gave 100% for remaining binding (PRKCD (Homo sapiens, UniProt Q05655); binding, competition with immobilised ligand).
For TIE1 (Homo sapiens, UniProt P35590); kinase binding, KINOMEscan; reference: DMSO control: remaining binding read 80%.
It gave 72% for remaining binding (MAP4K5 (Homo sapiens, UniProt Q9Y4K4); binding, competition with immobilised ligand).
It gave 78% for remaining binding (Tyrosine-protein kinase ABL1, non-phosphorylated (ABL1, Homo sapiens, UniProt P00519, Q252H); kinase binding, KINOMEscan; reference: DMSO control).
Tyrosine-protein kinase ABL1, phosphorylated (ABL1, Homo sapiens, UniProt P00519, Y253F); binding, competition with immobilised ligand — remaining binding: 97%.
For TNNI3K (Homo sapiens, UniProt Q59H18); kinase binding, KINOMEscan; reference: DMSO control: remaining binding read 100%.

Series 4
Compound: COc1cc(-c2nc3ccc(C(=O)NCCCN4CCN(c5cccc(C)c5C)CC4)cc3n2C2CCC2)cc(OC)c1OC
For TSSK3 (Homo sapiens, UniProt Q96PN8); binding, competition with immobilised ligand; 1 µM: remaining binding read 89%.
CSNK2A2 (Homo sapiens, UniProt P19784); binding, competition with immobilised ligand; 1 µM — remaining binding: 100%.
MAPK3 (Homo sapiens, UniProt P27361); binding, competition with immobilised ligand; 1 µM — remaining binding: 81%.
BMPR2 (Homo sapiens, UniProt Q13873); binding, competition with immobilised ligand; 1 µM — remaining binding: 89%.
For Ribosomal protein S6 kinase alpha-5, C-terminal kinase domain (RPS6KA5, Homo sapiens, UniProt O75582); binding, competition with immobilised ligand; 1 µM: remaining binding read 100%.
PRKCD (Homo sapiens, UniProt Q05655); binding, competition with immobilised ligand; 1 µM — remaining binding: 100%.
PKN2 (Homo sapiens, UniProt Q16513); binding, competition with immobilised ligand; 1 µM — remaining binding: 92%.
The remaining binding was 89% (SGK3 (Homo sapiens, UniProt Q96BR1); binding, competition with immobilised ligand; 1 µM).
It gave 94% for remaining binding (CSNK1A1 (Homo sapiens, UniProt P48729); binding, competition with immobilised ligand; 1 µM).
For PRPF4B (Homo sapiens, UniProt Q13523); binding, competition with immobilised ligand; 1 µM: remaining binding read 100%.
It gave 73% for remaining binding (Tyrosine-protein kinase ABL1, phosphorylated (ABL1, Homo sapiens, UniProt P00519, Q252H); binding, competition with immobilised ligand; 1 µM).
It gave 77% for remaining binding (PLK2 (Homo sapiens, UniProt Q9NYY3); binding, competition with immobilised ligand; 1 µM).
GSK3A (Homo sapiens, UniProt P49840); binding, competition with immobilised ligand; 1 µM — remaining binding: 98%.
The remaining binding was 69% (SRMS (Homo sapiens, UniProt Q9H3Y6); binding, competition with immobilised ligand; 1 µM).
The remaining binding was 89% (STK11 (Homo sapiens, UniProt Q15831); binding, competition with immobilised ligand; 1 µM).
For NEK11 (Homo sapiens, UniProt Q8NG66); KINOMEscan; 1000 nM: remaining binding read 81%.
CAMK1 (Homo sapiens, UniProt Q14012); binding, competition with immobilised ligand; 1 µM — remaining binding: 100%.

A few entries again (series 2):
For SW1463; cell proliferation; 41.15 nM: inhibition read 10.5%.
The inhibition was 88% (PKMYT1; enzyme activity, inhibitor; 37.04 nM).
Protein cereblon (CRBN, Homo sapiens, UniProt Q96SW2); binding; 30000 nM — inhibition: 67.1% and 67.2%.
It gave 82% and 81.4% for inhibition (PKMYT1; 13.72 nM).
